Assay results from different studies.
Parts stem from different laboratories: compare values within a part only.

Sample 1
Target: PABPC1L2, full length, GST fusion (mouse, UniProt A0ABA7IW68)
Method: RNAcompete
Molecule type: RNA
Matrix: in vitro
Concentration: 20 nM
Setting: 7-mer, probes averaged, single round
Baseline: mean of 7-mers
Reading: higher = stronger binding
Residues (chain): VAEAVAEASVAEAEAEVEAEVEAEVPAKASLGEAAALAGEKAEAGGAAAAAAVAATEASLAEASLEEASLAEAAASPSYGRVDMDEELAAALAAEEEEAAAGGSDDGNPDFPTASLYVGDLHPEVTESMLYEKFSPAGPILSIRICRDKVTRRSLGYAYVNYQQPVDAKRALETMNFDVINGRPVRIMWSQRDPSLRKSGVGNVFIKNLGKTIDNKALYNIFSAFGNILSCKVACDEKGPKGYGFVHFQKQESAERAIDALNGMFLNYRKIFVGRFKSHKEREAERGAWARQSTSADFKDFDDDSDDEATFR
| Oligonucleotide | 7-mer Z-score |
| --- | --- |
| AACUCUA | -0.0174 |
| UACCUGG | -0.208 |
| GUACCGA | -0.202 |

Sample 2
Target: Histone acetyltransferase KAT6A, both winged helices, GST fusion (KAT6A, Homo sapiens, UniProt Q92794, residues 1-181)
Method: protein binding microarray
Molecule type: double-stranded DNA, one strand shown
Matrix: in vitro
Concentration: not given
Setting: 8-mer, flanks averaged, mean of 2 arrays, mostly near background
Baseline: not given
Reading: higher = stronger binding
Construct (chain): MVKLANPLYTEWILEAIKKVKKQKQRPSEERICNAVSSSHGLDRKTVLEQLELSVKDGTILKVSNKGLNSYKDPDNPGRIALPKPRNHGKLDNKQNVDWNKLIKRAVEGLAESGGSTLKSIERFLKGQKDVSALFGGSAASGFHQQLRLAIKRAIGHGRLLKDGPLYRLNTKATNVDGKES
| Oligonucleotide | E-score |
| --- | --- |
| ATACAAAC | -0.0512 |
| TTCAGGAA | -0.221 |
| CATTCAAG | -0.0627 |
| CTGCCTAA | -0.237 |

Sample 3
Target: Hepatocyte nuclear factor 3-beta, forkhead domain (FOXA2, Homo sapiens, UniProt Q9Y261, residues 142-269)
Method: protein-binding microarray
Molecule type: double-stranded DNA, one strand shown
Matrix: in vitro
Concentration: not given
Setting: k-mer, scored over probes, only values ≥0.25
Reading: higher = stronger binding
Residues (chain): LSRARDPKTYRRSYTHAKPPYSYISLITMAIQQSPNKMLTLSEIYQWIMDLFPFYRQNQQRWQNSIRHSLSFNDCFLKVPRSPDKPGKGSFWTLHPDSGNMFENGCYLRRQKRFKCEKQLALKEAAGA
| Oligonucleotide | E-score |
| --- | --- |
| AGGTTGTA | 0.337 |
| GTTATTGA | 0.27 |
| TATAAACA | 0.339 |
| GTGATTGA | 0.251 |

Single results of other studies
| Substance | target | assay | test system | setting | scale | quantity | value |
| --- | --- | --- | --- | --- | --- | --- | --- |
| PhoQ, residues 284 288 289 292 302 303 TNASYF | PhoP, residues 12 14 15 18 19 GQAIL (Escherichia coli, UniProt P23836) | Sort-seq, item: YFP reporter | E. coli | PhoQ-PhoP variant library, added: 10 µM Mg2+ | baseline: high Mg2+ state, higher = stronger signaling | fold induction | 11.1 |

Repeated from above (sample 2):
| Oligonucleotide | E-score |
| --- | --- |
| CATTCAAG | -0.0627 |
| ATACAAAC | -0.0512 |
